Measured values of several laboratories.
Parts stem from different laboratories: compare values within a part only.

Study 1 — method: aptamer microarray, sandwich; form: DNA with 2'F-ANA; medium: in vitro; concentration: 200 nM; added: Cy3 exosite-II aptamer, 400 nM; reading: higher = stronger binding; sequence: GGTTGGTGTGGTTGG
Target: Prothrombin, mature alpha-thrombin (F2, Homo sapiens, UniProt P00734)
Setting: whole 15-mer aptamer, many near background
Modification | mean fluorescence intensity
2'F-ANA at 1 3 4 5 7 9 10 13 14 | 42.7 a.u.
2'F-ANA at 1 3 5 10 12 14 | 41.9 a.u.
2'F-ANA at 4 5 8 9 11 14 15 | 65.3 a.u.
2'F-ANA at 4 6 9 10 12 14 | 79.6 a.u.
2'F-ANA at 3 9 12 15 | 1420 a.u.

Study 2 — method: protein binding microarray; form: double-stranded DNA, one strand shown; medium: in vitro; concentration: not given; baseline: not given; reading: higher = stronger binding
Target: Histone acetyltransferase KAT6A, winged helix 2, GST fusion (KAT6A, Homo sapiens, UniProt Q92794, residues 85-181)
Setting: 8-mer, flanks averaged, mean of 2 arrays, mostly near background
Target sequence (chain): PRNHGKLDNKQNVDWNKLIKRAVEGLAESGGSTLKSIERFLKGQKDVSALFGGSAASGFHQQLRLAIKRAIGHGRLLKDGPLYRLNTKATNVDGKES
Sequence | E-score
GGATCATA | -0.0212
TCCGATAA | -0.204
CTAACAGC | 0.0409
GCCTACAA | -0.00645
ACTACCAT | -0.13

Study 3 — method: protein-binding microarray; form: double-stranded DNA, one strand shown; medium: in vitro; concentration: 2540 nM top; setting: 60-bp whole probe; added: salmon DNA 0.4 mg/ml; baseline: random background probes; reading: higher = stronger binding
Target: Interferon regulatory factor 3, full length, phosphomimetic (IRF3, Homo sapiens, UniProt Q14653, residues 1-427, S386D/S396D/S398D/S402D/T404D/S405D)
Construct (chain): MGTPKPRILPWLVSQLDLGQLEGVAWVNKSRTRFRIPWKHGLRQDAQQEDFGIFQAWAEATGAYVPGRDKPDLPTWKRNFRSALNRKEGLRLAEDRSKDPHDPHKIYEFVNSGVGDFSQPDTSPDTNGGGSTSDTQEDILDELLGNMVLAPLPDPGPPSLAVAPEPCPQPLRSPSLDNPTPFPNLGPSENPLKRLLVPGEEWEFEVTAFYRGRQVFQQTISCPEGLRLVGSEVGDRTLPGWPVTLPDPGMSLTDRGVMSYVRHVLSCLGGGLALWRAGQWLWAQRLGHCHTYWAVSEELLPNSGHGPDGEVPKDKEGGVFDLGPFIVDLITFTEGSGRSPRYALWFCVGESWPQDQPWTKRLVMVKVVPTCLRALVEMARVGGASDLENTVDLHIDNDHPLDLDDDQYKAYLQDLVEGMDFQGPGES
Sequence | fitted relative affinity [z-score]
GCCTAGCACCACGGTTTCCTACTGCTGACGTGCTAGGTCTTGATTCGCTTGACGCTGCTG | 4.67
GCCTAGCACTTAGAACTGGGACTGGATTAGTGCTAGGTCTTGATTCGCTTGACGCTGCTG | -0.706
GCCTAGCACGATTGGTTGAACATGAACTTGTGCTAGGTCTTGATTCGCTTGACGCTGCTG | -0.274
GCCTAGCACAGGGTCATCCATCTGAACCAGTGCTAGGTCTTGATTCGCTTGACGCTGCTG | -0.165

Other studies, line by line
Molecule | target | test | system | conditions | how to read | quantity | result
PhoQ, residues 284 288 289 292 302 303 SSTMSV | PhoP, residues 12 14 15 18 19 LWHVM (Escherichia coli, UniProt P23836) | Sort-seq, refers to: YFP reporter | E. coli | PhoQ-PhoP variant library, added: 10 µM Mg2+ | baseline: high Mg2+ state, higher = stronger signaling | fold induction | 13.4

For quick reference, copied from above (study 3):
Sequence | fitted relative affinity [z-score]
GCCTAGCACAGGGTCATCCATCTGAACCAGTGCTAGGTCTTGATTCGCTTGACGCTGCTG | -0.165
GCCTAGCACTTAGAACTGGGACTGGATTAGTGCTAGGTCTTGATTCGCTTGACGCTGCTG | -0.706
GCCTAGCACGATTGGTTGAACATGAACTTGTGCTAGGTCTTGATTCGCTTGACGCTGCTG | -0.274
